Assay results pooled from the literature.
Each numbered part is a random draw from the data of one study; scales do not carry over between parts.

Study 1 — method: protein binding microarray; form: double-stranded DNA, one strand shown; medium: in vitro; concentration: not given; baseline: not given; direction: higher = stronger binding
Target: Histone acetyltransferase KAT6A, winged helix 1, GST fusion (KAT6A, Homo sapiens, UniProt Q92794, residues 1-85)
Notes: 8-mer, flanks averaged, mean of 2 arrays, mostly near background
Residues (chain): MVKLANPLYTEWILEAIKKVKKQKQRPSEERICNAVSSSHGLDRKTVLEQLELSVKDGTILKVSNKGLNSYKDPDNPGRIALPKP
`GATAATAA` gave an E-score of -0.0332.
For `CAAATGTA`, the E-score was -0.151.
The E-score of `GCTGCAGA` is reported as -0.137.
`ACAAAGGC` gave an E-score of -0.0488.

Study 2 — method: universal PBM; form: double-stranded DNA, one strand shown; medium: in vitro; concentration: not given; direction: higher = stronger binding
Target: Sal-like protein 4, full length isoform B (SALL4, Homo sapiens, UniProt Q9UJQ4-2, residues 1-616)
Notes: 8-mer, flanks averaged, mean of replicates
Construct (chain): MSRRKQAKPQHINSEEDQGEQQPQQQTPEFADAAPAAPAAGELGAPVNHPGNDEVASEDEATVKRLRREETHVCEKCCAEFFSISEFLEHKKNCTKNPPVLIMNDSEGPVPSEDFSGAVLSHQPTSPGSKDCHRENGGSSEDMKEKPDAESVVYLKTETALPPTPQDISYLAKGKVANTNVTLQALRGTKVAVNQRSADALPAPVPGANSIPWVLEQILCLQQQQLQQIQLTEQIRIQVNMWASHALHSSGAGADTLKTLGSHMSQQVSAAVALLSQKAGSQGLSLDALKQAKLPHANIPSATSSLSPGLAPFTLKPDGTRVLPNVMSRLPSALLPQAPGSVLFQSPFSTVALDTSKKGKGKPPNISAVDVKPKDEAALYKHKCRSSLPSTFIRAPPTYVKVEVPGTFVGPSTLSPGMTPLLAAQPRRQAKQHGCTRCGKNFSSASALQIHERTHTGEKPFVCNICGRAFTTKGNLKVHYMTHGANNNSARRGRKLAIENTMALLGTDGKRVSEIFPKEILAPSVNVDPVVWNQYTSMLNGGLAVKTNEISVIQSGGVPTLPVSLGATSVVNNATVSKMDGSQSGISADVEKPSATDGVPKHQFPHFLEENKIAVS
With `AACGACGC` the E-score was -0.0561.
`CCACGTTA` has an E-score of 0.159.
`CTTAGTCC` gave an E-score of -0.0755.

Study 3 — method: protein-binding microarray; form: double-stranded DNA, one strand shown; medium: in vitro; concentration: not given; direction: higher = stronger binding
Target: Transcription factor Sp1 (SP1, Homo sapiens, UniProt P08047, residues 1-785, full length assumed)
UniProt P08047, sequence (whole entry, looked up): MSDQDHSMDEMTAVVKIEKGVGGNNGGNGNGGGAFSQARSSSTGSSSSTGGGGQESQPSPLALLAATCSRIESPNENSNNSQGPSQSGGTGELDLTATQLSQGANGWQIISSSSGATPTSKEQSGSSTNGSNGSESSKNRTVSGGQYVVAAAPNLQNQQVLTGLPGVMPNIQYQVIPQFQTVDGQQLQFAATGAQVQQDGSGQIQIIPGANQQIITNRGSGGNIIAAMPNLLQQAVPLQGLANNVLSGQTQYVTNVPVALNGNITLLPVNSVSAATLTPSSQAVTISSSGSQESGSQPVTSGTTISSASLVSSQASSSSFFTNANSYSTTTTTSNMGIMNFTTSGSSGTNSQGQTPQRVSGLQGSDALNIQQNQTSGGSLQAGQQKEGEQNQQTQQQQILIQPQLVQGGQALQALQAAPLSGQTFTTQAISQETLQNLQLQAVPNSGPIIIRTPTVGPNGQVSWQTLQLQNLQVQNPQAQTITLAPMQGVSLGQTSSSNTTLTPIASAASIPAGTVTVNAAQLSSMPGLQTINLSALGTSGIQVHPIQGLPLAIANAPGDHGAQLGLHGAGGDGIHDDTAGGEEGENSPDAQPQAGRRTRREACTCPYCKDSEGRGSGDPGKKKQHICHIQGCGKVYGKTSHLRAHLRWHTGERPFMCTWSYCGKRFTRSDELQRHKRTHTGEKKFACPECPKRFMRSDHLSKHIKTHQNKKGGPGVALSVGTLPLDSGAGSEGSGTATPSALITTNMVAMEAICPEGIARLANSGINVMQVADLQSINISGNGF
Notes: k-mer, scored over probes, only values ≥0.25
The E-score of `GATGGGGA` is reported as 0.308.
For `ATCCCCAA`, the E-score was 0.28.
The E-score of `ACATATCA` is reported as 0.338.

Mixed results
With `PhoQ, residues 284 288 289 292 302 303 MLMVEA` the fold induction was 12.8 (PhoP, residues 12 14 15 18 19 NNFVT (Escherichia coli, UniProt P23836); Sort-seq, item: YFP reporter; E. coli; PhoQ-PhoP variant library, together with: 10 µM Mg2+; baseline: high Mg2+ state, higher = stronger signaling).

Some of these lines once more (study 3):
The E-score of `GATGGGGA` is reported as 0.308.
